Published values pooled from the literature.
Each numbered part is a random draw from the data of one study; scales do not carry over between parts.

Study 1
Target: RNA binding protein fox-1 homolog 2, RRM domain, GST-SBP tag (RBFOX2, Homo sapiens, UniProt O43251-10, residues 100-194)
Technique: RNA Bind-n-Seq
Molecule type: RNA
Sample: in vitro
Concentration: 365 nM
Notes: natural RNA segment, single round, ends assumed
Baseline: no-protein control
Reading: higher = stronger binding
`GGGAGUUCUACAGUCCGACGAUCUUCCCAGCUCUGCAUCAACACAGCAGCCUGCAGAUAACACUUGGGGGGACCUCAGCCUCUAUUCGCAACUCAUAAUCCGUAGACUACAAGAUGAAAUCUCAAUAAAUUAUUGGAAUUCUCGGGUGCCAA`: “RBNS enrichment (R)” 0.514.
`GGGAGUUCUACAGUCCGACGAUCAACUUCAGUUUUGCCAAGUGCAAUGGUGUUGCCUUCUUUAAAAAAUGCCGUUUUCUUACACUACCAGUGGAUGUCCAGACAUGCUCUUAGUCUACUAGAGAGGUGCUGCCUGGAAUUCUCGGGUGCCAA`: “RBNS enrichment (R)” 0.504.
`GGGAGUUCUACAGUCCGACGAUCGAGGCAGAGGUGACAGUUCCCAGAGUGGGCUUUGGUGGCCAGGGAGGCAGCCUAGCCUAUGUCUGGCAGAUGAGGGCUGGCUGCCGUUUUCUGGGCUGAUGGGUGCCCUUUGGAAUUCUCGGGUGCCAA`: “RBNS enrichment (R)” 0.788.
`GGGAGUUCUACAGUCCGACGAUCGUCGUGAGCUCUCCUACAUCUAUUUCCGGUUUUGAUUCCAGUCAUACCAGUAUUUCCAUAACAGAGAAUGGUGAGCCCUAUGAUGCUGAAGGGAUUCCAUCUCUCCAUCUUGGAAUUCUCGGGUGCCAA` — result for “RBNS enrichment (R)”: 0.765.
`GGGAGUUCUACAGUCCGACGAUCUUCCUCCUGCUCCAAACUUUGCCCAUCCUCUUUGCCCCCUCAGGAGUGCUGAGGGCCAGUGUUGACCCACACUACCCUCCCUUGACCAGCUGUCUGGGACCGGAAACCAGUGGAAUUCUCGGGUGCCAA` — result for “RBNS enrichment (R)”: 0.847.
`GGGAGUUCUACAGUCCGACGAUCUUGAGAAAGCAAGAUCUAAUCUGAAAUGGAUGACAUUAACAAGCUCCUUAAGCCCCUGAAGUUUUAUUGCAUCUGCUAGCACUUGAAUGCUGACUGACAGGCAGAUCCUGUGGAAUUCUCGGGUGCCAA`: “RBNS enrichment (R)” 2.97.
`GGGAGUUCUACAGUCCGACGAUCACUAGGAAUCCUCCAACCAGGCUCCUGUGAUAGAGUUCUUUUAAGCCCAAGAUUUUUUAUUUGAGGGUUUUUUGUUUUUUAAAAAAAAAUUGAACAAAGACUACUAAUGAUGGAAUUCUCGGGUGCCAA`: “RBNS enrichment (R)” 0.454.
`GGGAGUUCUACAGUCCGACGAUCUUGCCGCUUCAGACAGUACUGCGAGCAAUGGCUGCCUUGUCGGAGUGAGUGUGUAGCUGGACACCUUAGAGGACCCUAUGAAAUUGGAUAUGGAGACUGAUUUGGUGGGAUGGAAUUCUCGGGUGCCAA` — result for “RBNS enrichment (R)”: 0.772.
`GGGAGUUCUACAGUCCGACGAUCCAGAGUCUGUGGGGAGGAUGGUGGGUGGGCAGCCAGCCCUGUUGCUAUGUUGCUUCUUCCACACCCCCUCAAGACAGGUGCAUAGGUGGCACUGGGAACAUCCUACGCAGUGGAAUUCUCGGGUGCCAA` — result for “RBNS enrichment (R)”: 0.419.

Study 2
Target: Ras GTPase-activating protein-binding protein 1, full length (G3BP1, Homo sapiens, UniProt Q13283)
Sequence of UniProt Q13283 (whole entry, looked up): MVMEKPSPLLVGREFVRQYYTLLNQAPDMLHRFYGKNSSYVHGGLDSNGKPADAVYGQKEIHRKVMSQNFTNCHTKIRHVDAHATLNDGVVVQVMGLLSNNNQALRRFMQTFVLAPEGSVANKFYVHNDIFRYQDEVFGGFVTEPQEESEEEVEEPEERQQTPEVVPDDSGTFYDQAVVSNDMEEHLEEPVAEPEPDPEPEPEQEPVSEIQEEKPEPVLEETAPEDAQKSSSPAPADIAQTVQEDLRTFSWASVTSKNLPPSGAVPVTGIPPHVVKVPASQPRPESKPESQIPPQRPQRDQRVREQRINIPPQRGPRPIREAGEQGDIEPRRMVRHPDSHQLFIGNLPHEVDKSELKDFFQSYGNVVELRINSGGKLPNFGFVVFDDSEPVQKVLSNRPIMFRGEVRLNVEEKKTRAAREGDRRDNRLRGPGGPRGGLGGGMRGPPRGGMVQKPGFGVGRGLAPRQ
Technique: RNA Bind-n-Seq
Molecule type: RNA
Sample: in vitro
Concentration: 200 nM
Notes: whole 134-nt RNA, ends assumed
Added: 150 mM KCl
Baseline: input library
Reading: higher = stronger binding
With `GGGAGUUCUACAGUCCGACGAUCCCUCAAGUCCUGUGCUACACAUCGUAUGUACCGAAUCGGUGGUUUGGUUUGGAAAGUAUUAUGUUACGCCGUUCGGAUCUGCACUUCCAGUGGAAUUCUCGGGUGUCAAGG` the log2 enrichment was -0.366.
`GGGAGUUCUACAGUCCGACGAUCUCAAGUCCUGUGCUACACAUCGUAUGUACCGAAUCGGUUUGGUUUGGGGUUUGGGAAAGUAUUAUGUUACGCCGUUCGGAUCUGCACUUCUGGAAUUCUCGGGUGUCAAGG` has a log2 enrichment of -0.949.
The log2 enrichment of `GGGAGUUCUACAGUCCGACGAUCCCUCAAGUCCUGUGCUACACAUCGUAUGUACCGAAUCGGUUGGGGUUGGUUGGAAAGUAUUAUGUUACGCCGUUCGGAUCUGCACUUCCAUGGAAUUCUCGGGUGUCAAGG` is reported as -0.0573.
The log2 enrichment of `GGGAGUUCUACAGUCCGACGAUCCACAGACAACACGAAACCACACAGACACAGAGGGAAGGGGUUGGGAUGGGGACAGGGUGCACAGCAGGGCGGGGUAGGACCCCAGCCCCUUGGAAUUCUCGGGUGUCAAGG` is reported as 1.74.
The log2 enrichment of `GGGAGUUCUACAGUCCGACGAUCUCCUGUGCUACACAUCGUAUGUACCGAAUCGGGAAAAAGGGGAAAAAGGGAAAAAGGGGAAAGUAUUAUGUUACGCCGUUCGGAUCUGCAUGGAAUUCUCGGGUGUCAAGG` is reported as -0.0238.
`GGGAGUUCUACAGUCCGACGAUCCUGUGCUACACAUCGUAUGUACCGAAUCGGGGAAAAAAAGGGGUUUUUGGGGUUUUUGGGGAAAGUAUUAUGUUACGCCGUUCGGAUCUGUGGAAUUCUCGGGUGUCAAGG` gave a log2 enrichment of -0.253.
With `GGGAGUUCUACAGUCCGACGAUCAGUCCUGUGCUACACAUCGUAUGUACCGAAUCGGUUUGGUUUUUUUGGAAAAAAAGGAAAGUAUUAUGUUACGCCGUUCGGAUCUGCACUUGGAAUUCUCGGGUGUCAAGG` the log2 enrichment was -1.36.
With `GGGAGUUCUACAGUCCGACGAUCUGGGAGGUGGAUUUUGUUUAUUUUUUUAGCUCAUUUCCAGGGGUGGGAAUUUUUUUUUAAUAUGUGUCAUGAAUAAAGUUCUUUUUGAAAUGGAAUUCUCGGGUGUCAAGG` the log2 enrichment was 0.211.
`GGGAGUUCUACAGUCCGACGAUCCAAGUCCUGUGCUACACAUCGUAUGUACCGAAUCGGGGAAAGGGAAAGGGAAAGGGAAAGUAUUAUGUUACGCCGUUCGGAUCUGCACUUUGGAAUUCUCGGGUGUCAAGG` has a log2 enrichment of 0.556.
`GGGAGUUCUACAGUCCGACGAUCCCCGAGCCGGAGAGGGAGCGCGAGCCGCGCCGGCCCCGGUCGGGCCUCCGAAACCAUGAACUUUCUGCUGUCUUGGGUGCAUUGGAGCCUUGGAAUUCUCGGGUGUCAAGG` has a log2 enrichment of 0.0887.

Study 3
Target: Histone acetyltransferase KAT6A, both winged helices, GST fusion (KAT6A, Homo sapiens, UniProt Q92794, residues 1-181)
Technique: protein binding microarray
Molecule type: double-stranded DNA, one strand shown
Sample: in vitro
Concentration: not given
Notes: 8-mer, flanks averaged, mean of 2 arrays, mostly near background
Baseline: not given
Reading: higher = stronger binding
Residues (chain): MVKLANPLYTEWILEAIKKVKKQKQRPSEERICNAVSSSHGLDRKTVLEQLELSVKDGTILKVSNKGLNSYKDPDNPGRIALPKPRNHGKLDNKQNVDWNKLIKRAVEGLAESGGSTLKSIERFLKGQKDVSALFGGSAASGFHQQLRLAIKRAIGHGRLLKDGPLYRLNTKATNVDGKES
The E-score of `GTATGCGA` is reported as 0.188.
`TTACGCAA` has an E-score of 0.122.
With `GCATCCTA` the E-score was -0.106.
`ACAGAGAT` gave an E-score of -0.125.
The E-score of `ACGGCGCT` is reported as 0.339.
For `AGGGTTTC`, the E-score was -0.0294.
For `ATGACCTG`, the E-score was -0.149.
The E-score of `GCTAAATA` is reported as -0.00211.
With `GGATGTCA` the E-score was 0.00904.
For `AGAGAACA`, the E-score was -0.0818.
`TAGAGCCA` gave an E-score of -0.169.
For `ATGCGCCG`, the E-score was 0.338.
The E-score of `ACCTTTAC` is reported as -0.00877.
With `TCTCGCAA` the E-score was 0.0209.
The E-score of `CGTGCTCC` is reported as -0.0462.
The E-score of `CTTTGCCA` is reported as -0.0385.
`GATTGCCA` has an E-score of -0.164.
`CACTCATG` gave an E-score of -0.0607.

Study 4
Target: RING finger protein unkempt homolog, zinc fingers 1-6, GST-SBP tag (UNK, Homo sapiens, UniProt Q9C0B0, residues 30-357)
Sequence of UniProt Q9C0B0 (30-357, looked up): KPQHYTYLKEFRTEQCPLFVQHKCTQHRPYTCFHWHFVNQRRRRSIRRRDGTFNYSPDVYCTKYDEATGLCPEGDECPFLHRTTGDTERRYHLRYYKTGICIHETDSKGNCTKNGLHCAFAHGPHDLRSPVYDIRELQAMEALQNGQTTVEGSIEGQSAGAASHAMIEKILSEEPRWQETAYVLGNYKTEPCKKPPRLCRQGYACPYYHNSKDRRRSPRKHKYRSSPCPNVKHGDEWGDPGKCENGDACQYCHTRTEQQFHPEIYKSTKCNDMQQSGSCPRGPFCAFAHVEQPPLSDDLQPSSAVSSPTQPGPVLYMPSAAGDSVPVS
Technique: RNA Bind-n-Seq
Molecule type: RNA
Sample: in vitro
Concentration: not given
Notes: RNA with constant flanks, human and mouse sites, ends assumed
Baseline: input RNA pool
Reading: higher = stronger binding
`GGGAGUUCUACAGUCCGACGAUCUGUUCCAACGCUGCCUUUGCUUUAAAACAGUAUUACUUGCGUUAUCUAGAAAAGUACGAGAAAGUUCAUCAUUUUGGGGAAGAUGAUGAUGAGGUACCACCAGGCAAUCCAAAGCCACAGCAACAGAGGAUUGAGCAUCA` gave a bound/input enrichment of 0.609 ratio.
For `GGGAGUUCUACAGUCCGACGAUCGGCUGCAGUGGGCAUGGCCGUUGUGUCAACGGGCAGUGCGUGUGUGACGAGGGCUAUACCGGAGAAGACUGUAGCCAGCGGCGAUGCCCCAAUGACUGUCACAACCGGGGUCUCUGCGUACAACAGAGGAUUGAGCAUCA`, the bound/input enrichment was 0.127 ratio.
With `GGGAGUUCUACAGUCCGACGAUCUCACUUACUCGAAGUGGGAAGAGAAACAAGAUGUUAAGAAGUUCUUUGCCAUGGAGGGAAAAUAGUUGGGAAGGAUAUAGUGGAAAUGUGAAGAUCAGAAAGCGUAAUGAUAUUCCAUGCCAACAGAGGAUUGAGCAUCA` the bound/input enrichment was 0.384 ratio.
The bound/input enrichment of `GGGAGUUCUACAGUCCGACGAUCGCUAGGAUUUAAAAAUAAAAAUCAGAGGCCUAUCUCCACUUUAAAUCUGUCCUGUAAAAGUUUUAUAAAUCAAAUGAAAGGUGACAUUGCCAGAAACUUACCAUUAACUUGCACUACUAGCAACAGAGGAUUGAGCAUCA` is reported as 1.5 ratio.
`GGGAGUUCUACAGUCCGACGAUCCUGCAACCAACCUCAGGAUGCUAUUAAAUGCUAUUUAAAUGCAACUAGAAGCAAAAAUUGUAGUAAUACCUCUGGACUUGCAGCACGAAUUAAGUAUUUACAGAAUACUUCUGAUAAUUGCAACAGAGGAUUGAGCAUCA` has a bound/input enrichment of 0.296 ratio.
The bound/input enrichment of `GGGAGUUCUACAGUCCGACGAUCCCUUCAGUCUUUUCCUGUUUACCGGCAUCUCUUGAGUGCUUGGCUGAUACAAGUGAUUCCUGCUUUCUCCAGUUUGAGUCAUGUCCAAUGGAGGAGAGCUGGUUUAUCACCCCACCCCCACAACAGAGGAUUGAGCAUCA` is reported as 0.173 ratio.
For `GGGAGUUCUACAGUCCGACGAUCCAAAGGUUUCUUUGUCAGCCCCCAUGACAACAAAUGGGUUGCCUGAGAGCACAGACAGCAAAGAGGCAAAUUUGCAGCAAAAUGAGGAGAAAAAUCACAGUGACUCUUCGACCUCUGAAUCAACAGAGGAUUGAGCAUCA`, the bound/input enrichment was 0.18 ratio.
With `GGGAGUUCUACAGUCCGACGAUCUCUGGAAGUGGAAUCCUUACUGCAUGUUUUGCACGUAUGGUUGGAUGUACUGGAAAAGUCAUAGGAAUUGAUCACAUUAAAGAGCUAGUAGAUGACUCAGUAAAUAAUGUCAGGAAGGACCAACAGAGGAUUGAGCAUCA` the bound/input enrichment was 2.44 ratio.
The bound/input enrichment of `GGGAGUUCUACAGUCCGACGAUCAACUGUAUCUGUGAUAUUGAAAAUUGUUCCAACAUGGCACCCCUCUACAGUGACUCUUACUUAGUCUUCUGGGCCAUUUUCAACUUGGUGACCUUUGUGGUAAUGGUGGUUCUCUAUGCUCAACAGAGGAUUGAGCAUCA` is reported as 0.335 ratio.
For `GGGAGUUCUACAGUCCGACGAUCGACGACGAGGCUGCCAUGGGCAUUAAAAGCUGUGACCCCAAAGGCCCUCUUAUGAUGUAUAUUUCCAAAAUGGUGCCAACCUCCGACAAAGGUCGGUUCUACGCCUUUGGACGAGUCUUCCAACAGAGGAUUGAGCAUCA`, the bound/input enrichment was 0.157 ratio.
For `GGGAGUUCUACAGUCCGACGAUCGAACACGGCAUCCAGCCCGAUGGCCAGAUGCCAAGUGACAAGACCAUUGGGGGAGGAGAUGAUUCCUUCAACACCUUCUUCAGUGAGACGGGGGCUGGCAAGCAUGUGCCCCGGGCAGUGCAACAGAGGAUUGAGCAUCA`, the bound/input enrichment was 0.129 ratio.

Excerpt of the above (study 2):
`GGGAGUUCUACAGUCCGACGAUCCUGUGCUACACAUCGUAUGUACCGAAUCGGGGAAAAAAAGGGGUUUUUGGGGUUUUUGGGGAAAGUAUUAUGUUACGCCGUUCGGAUCUGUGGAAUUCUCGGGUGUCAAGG` gave a log2 enrichment of -0.253.
`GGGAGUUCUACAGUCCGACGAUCCCCGAGCCGGAGAGGGAGCGCGAGCCGCGCCGGCCCCGGUCGGGCCUCCGAAACCAUGAACUUUCUGCUGUCUUGGGUGCAUUGGAGCCUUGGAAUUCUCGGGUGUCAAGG` has a log2 enrichment of 0.0887.
With `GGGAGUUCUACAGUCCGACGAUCUGGGAGGUGGAUUUUGUUUAUUUUUUUAGCUCAUUUCCAGGGGUGGGAAUUUUUUUUUAAUAUGUGUCAUGAAUAAAGUUCUUUUUGAAAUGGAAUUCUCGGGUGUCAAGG` the log2 enrichment was 0.211.
